Measured values collected from several papers.
Protocols differ between the studies behind these lines. Values joined by “and” are separate records of one study, mostly repeats; a detail may differ.
Sequence of UniProt Q64663 (whole entry, unmodified, looked up): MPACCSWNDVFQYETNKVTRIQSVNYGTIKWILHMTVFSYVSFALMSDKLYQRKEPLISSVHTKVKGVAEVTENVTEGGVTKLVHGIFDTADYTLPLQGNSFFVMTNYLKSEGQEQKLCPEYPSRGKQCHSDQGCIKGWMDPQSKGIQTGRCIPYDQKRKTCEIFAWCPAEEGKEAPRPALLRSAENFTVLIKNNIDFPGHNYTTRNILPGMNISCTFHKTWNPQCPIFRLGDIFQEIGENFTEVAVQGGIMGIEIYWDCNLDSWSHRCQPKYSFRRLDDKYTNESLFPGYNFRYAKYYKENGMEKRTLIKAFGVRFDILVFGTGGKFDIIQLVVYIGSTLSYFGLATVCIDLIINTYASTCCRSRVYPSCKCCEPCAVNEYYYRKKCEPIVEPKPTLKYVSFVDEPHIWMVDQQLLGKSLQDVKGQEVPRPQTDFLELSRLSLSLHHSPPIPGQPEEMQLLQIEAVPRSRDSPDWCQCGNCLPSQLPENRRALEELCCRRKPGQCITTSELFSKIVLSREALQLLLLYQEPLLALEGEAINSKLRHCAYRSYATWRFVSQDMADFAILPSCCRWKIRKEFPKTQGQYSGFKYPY

`GWTLNSAGYLLGPHAVGNHRSFSDKNGLTS`: activity “inactive” (Aplysia californica; receptor activation, agonist, IP1 accumulation; peptide, CHO-K1 cells transfected with Gα16; up to 100 µM).
For `Polymyxin B`, “inhibition zone diameter” read 18 mm (Escherichia coli; ATCC 25922; 125 µg per disc, 24 h, 37 °C).
Under “EBV DNA copy number”, `LVHYTHCGSLGV` is recorded as 0 copies (Epstein-Barr virus; BamHI-W qPCR; peptide, B-NDG humanized mouse, EBV-infected, peripheral blood; 20 mg/kg, day 0).
For `CTGTTACTCT`, “log2 fold change” read 1.64 (Salmonella enterica Typhimurium; RNA-seq, item: SL1344_3728 transcript; peptide, SL1344; 5 µM, 15 min; baseline: untreated control).
For `VMRLQSETSV`, “normalised SPR binding response” read 0 normalised RU (human MAGI1-2/6 PDZ construct (MBP fusion); surface plasmon resonance; peptide; concentration not given; higher = stronger binding).
`maraviroc` — result for “HIV-1 tat decrease”: 81.7 fold (HIV-1 ADA; viral replication, qPCR; HIV-infected mice, brain; ip, 120 mg/kg twice daily, 3 weeks post-infection, normalized to CD45+ cells; baseline: untreated HIV-infected mice).
With `Peginesatide` the phosphorylation level was 68.6 fold (UT7/EPO; tyrosine phosphorylation, LC-MS/MS phosphoproteomics, GluC, item: SHIP2 tyrosine 986; 10 nM, 15 min, together with: 10 U/mL EPO; baseline: vehicle).
The normalized current of `BzATP` is reported as 0 (P2X purinoceptor 7 (P2rx7, Rattus norvegicus, UniProt Q64663, I214A/R125A); ion current, agonist, two-electrode voltage clamp; Xenopus laevis oocytes; 1.23 µM; baseline: highest concentration response).
`gentamicin` gave a viable count of 5.77 log CFU/mL (Escherichia coli; time-kill; 1 x MIC, 15 min).
`CTCATACTCT`: “log2 fold change” 1.64 (Salmonella enterica Typhimurium; RNA-seq, item: SL1344_3728 transcript; peptide, SL1344; 5 µM, 15 min; baseline: untreated control).
For `QSARYRDTEL`, “normalised SPR binding response” read 0 normalised RU (human MAGI1-2/6 PDZ construct (MBP fusion); surface plasmon resonance; peptide; concentration not given; higher = stronger binding).
Under “mRNA level reduction”, `TCATCCGCTG (PNA, CPP-conjugated)` is recorded as 47% (Salmonella enterica Typhimurium; RT-qPCR, item: mrdA; peptide, SL1344; concentration not given, 30 min, sublethal dose; baseline: mock).
With `colistin` the fold enhancement was 16 fold (Escherichia coli; tetracycline activity; tetracycline-resistant; 0.0625 µM, together with: tetracycline; baseline: tetracycline alone).
`Polymyxin B`: “glutathione peroxidase activity” 3.89 U/mg and 4.25 U/mg and 4.47 U/mg (Staphylococcus aureus; CMCC 26003; concentration not given).
Under “log2 fold change”, `CAGATACTCT` is recorded as -1.32 (Salmonella enterica Typhimurium; RNA-seq, item: fadL mRNA; peptide, SL1344; 5 µM, 15 min; baseline: water control).
The OD600 of `milbemycin oxime` is reported as 0.047 and 0.032 and 0.044 (Saccharomyces cerevisiae; cell growth; Pdr5 deleted, Cdr1 overexpressed; 2^-2.966 µg/mL, together with: fluconazole 1 µg/mL).
`colistin` gave an MIC of 1 µg/mL (Acinetobacter baumannii; clinical strain 2E7).
Under D-lactate level, `TTATCGTCCC` is recorded as “no effect” (Synechocystis sp.; LC-MS; peptide, PCC 6803; 10 µM, 48 h; baseline: untreated wild type).
`benzalkonium chloride` gave an MIC of 32 µM (Enterococcus faecalis; OG1RF).
For `CTCATACAGT`, “log2 fold change” read -1.45 (Salmonella enterica Typhimurium; RNA-seq, item: fabF mRNA; peptide, SL1344; 5 µM, 15 min; baseline: water control).
With `DAPT` the MIC was 1.5 µg/mL (Enterococcus faecium; ATCC 27270).
The MIC of `CTCAATCTCT` is reported as over 10 µM (Salmonella enterica Typhimurium; broth microdilution; peptide, SL1344; range over 0.3-10 µM, 24 h, 37 °C, Mueller-Hinton broth).
For `colistin`, the MIC was 8 µg/mL (Klebsiella pneumoniae; broth microdilution; clinical isolate RKI-No_164/16).
Under “log2 fold change”, `TCACTATCTC` is recorded as 1.94 (Salmonella enterica Typhimurium; RNA-seq, item: pagN; peptide, SL1344; 5 µM, 15 min; baseline: water).
`Triton X-100` has a fold enhancement of 2 fold (Escherichia coli; tetracycline antibacterial activity, potentiator, checkerboard; tet efflux pump expressing; 1700 µM, together with: tetracycline; baseline: tetracycline alone).
`CTCTAACTCT`: “log2 fold change” 1.65 (Salmonella enterica Typhimurium; RNA-seq, item: SL1344_3728 transcript; peptide, SL1344; 5 µM, 15 min; baseline: untreated control).
`11-deoxycorticosterone`: “rate constant k-1” 622 min⁻¹ (human CYP11B2; substrate, stopped-flow kinetics; 4-state closed model, together with: adrenodoxin 10-fold excess).

Some of these lines once more:
For `QSARYRDTEL`, “normalised SPR binding response” read 0 normalised RU (human MAGI1-2/6 PDZ construct (MBP fusion); surface plasmon resonance; peptide; concentration not given; higher = stronger binding).
